Assay results gathered from unrelated publications.
Parts stem from different laboratories: compare values within a part only.

Series 1
Target: Phosphate system positive regulatory protein PHO4, full length, GST-tagged (PHO4, Saccharomyces cerevisiae, UniProt P07270, residues 1-312)
Technique: competition protein-binding microarray
Molecule type: double-stranded DNA, one strand shown
Medium: in vitro
Concentration: 2 µM
Notes: whole 60-bp probe, lowest competitor level
Together with: Cbf1 competitor, 0.05 µM
Direction: higher = stronger binding
Measurement: fluorescence intensity
All sequences stand within: … GTCTTGATTCGCTTGACGCTGCTG
Residues (chain): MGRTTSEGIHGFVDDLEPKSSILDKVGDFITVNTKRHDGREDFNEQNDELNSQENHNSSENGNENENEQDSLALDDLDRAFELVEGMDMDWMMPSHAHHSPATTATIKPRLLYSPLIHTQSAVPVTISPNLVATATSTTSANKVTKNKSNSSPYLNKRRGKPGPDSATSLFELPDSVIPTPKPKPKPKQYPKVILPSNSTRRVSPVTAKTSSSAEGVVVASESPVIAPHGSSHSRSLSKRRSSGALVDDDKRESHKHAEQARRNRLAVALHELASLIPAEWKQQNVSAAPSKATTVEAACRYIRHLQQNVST
CTCTTTTCGCGGAGCCGCATGCAAGGCTACATTAAA: 8170 a.u.
CATACCCAACCTTGTTTGGTGGGTGAAGATATTTGT: 3480 a.u.
CACTGACTCAGCAGACACGTGGCTGGGCTCAGGCTG: 18300 a.u.
CCGGAACAACCTTGGTGCATGACAGAACGTAGACCA: 5060 a.u.
AAAGCGGTAATTTTTCACGTGGGTTCACATATCTAT: 14900 a.u.

Series 2
Target: Interferon regulatory factor 7, full length, phosphomimetic (IRF7, Homo sapiens, UniProt Q92985, residues 1-503, S471D/S472D/S475D/S476D/S477D/S483D/S484D/S487D)
UniProt Q92985, sequence (whole entry, unmodified, looked up): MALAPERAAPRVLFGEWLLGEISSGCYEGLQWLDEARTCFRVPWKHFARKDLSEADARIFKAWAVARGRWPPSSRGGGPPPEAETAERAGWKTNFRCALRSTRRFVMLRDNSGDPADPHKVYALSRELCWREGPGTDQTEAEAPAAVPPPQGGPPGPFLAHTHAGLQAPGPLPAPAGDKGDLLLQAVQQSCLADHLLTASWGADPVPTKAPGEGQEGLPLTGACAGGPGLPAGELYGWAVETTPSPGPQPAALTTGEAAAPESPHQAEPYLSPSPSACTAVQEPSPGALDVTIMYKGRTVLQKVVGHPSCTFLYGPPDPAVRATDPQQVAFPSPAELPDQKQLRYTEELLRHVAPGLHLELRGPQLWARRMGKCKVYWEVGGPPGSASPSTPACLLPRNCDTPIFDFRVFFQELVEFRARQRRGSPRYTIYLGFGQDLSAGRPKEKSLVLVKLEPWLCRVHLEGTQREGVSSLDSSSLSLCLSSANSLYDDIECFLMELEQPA
Technique: protein-binding microarray
Molecule type: double-stranded DNA, one strand shown
Medium: in vitro
Concentration: 2200 nM top
Notes: 60-bp whole probe
Together with: salmon DNA 0.4 mg/ml
Relative to: random background probes
Direction: higher = stronger binding
Measurement: fitted relative affinity
All sequences stand within: GCCTAGCAC … GTCTTGATTCGCTTGACGCTGCTG
TTAGATAACAGTATCGATTAGTGCTAG: -0.0504 z-score
GTGTTTGTCCCTATTTAAGAGTGCTAG: 2.39 z-score
TCAGTTTTTGCTTTCCTACTGTGCTAG: 4.65 z-score
CATTTTTTTTTTCTACTTCTGTGCTAG: 3.32 z-score
TATTATTTGCCTTGCATTTTGTGCTAG: 0.794 z-score
TTGTTTCCATTTTCTGAATGCGTGCTA: 6.83 z-score
CTAGGACTGGGTATCGGTTAGTGCTAG: -0.362 z-score

Series 3
Target: Sal-like protein 4, full length isoform A (SALL4, Homo sapiens, UniProt Q9UJQ4, residues 1-1053)
UniProt Q9UJQ4, sequence (whole entry, looked up): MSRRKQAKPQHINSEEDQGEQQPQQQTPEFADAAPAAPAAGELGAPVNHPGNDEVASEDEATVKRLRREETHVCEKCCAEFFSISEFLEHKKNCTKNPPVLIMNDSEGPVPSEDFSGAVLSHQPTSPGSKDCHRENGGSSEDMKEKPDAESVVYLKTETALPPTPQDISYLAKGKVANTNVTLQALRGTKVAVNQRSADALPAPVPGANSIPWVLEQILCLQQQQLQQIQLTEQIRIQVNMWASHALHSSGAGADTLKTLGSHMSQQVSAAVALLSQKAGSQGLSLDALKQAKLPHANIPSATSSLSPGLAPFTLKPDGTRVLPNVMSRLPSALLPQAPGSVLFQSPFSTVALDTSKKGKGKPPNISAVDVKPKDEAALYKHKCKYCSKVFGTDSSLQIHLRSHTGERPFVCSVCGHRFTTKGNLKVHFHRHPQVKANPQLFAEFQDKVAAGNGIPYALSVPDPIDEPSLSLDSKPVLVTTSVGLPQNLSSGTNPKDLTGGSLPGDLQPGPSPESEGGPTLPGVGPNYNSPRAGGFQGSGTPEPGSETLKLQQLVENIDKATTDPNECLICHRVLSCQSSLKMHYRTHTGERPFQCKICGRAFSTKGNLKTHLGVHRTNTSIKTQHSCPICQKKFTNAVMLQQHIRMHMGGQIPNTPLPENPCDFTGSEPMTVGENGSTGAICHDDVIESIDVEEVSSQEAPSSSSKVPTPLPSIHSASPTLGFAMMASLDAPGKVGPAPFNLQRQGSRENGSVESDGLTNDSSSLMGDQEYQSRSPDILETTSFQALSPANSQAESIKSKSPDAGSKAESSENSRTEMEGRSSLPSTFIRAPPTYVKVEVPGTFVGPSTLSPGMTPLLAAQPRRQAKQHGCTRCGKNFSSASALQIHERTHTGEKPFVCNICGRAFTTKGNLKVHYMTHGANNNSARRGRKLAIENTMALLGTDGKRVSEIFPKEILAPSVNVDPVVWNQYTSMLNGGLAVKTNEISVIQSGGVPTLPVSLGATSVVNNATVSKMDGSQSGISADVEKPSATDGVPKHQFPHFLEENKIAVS
Technique: universal PBM
Molecule type: double-stranded DNA, one strand shown
Medium: in vitro
Concentration: 600 nM
Notes: 8-mer, flanks averaged, mean of replicates
Direction: higher = stronger binding
Measurement: E-score
CATTGTAA: 0.219
AGGTCGTG: -0.162
TAAACGGA: 0.115
AAATCATG: 0.252
ACCCCGGC: -0.358
AGTATAGG: 0.137

Mixed results
PhoQ, residues 284 288 289 292 302 303 SMMNNA  fold induction (PhoP, residues 12 14 15 18 19 IFFTR (Escherichia coli, UniProt P23836); Sort-seq, item: YFP reporter; E. coli; PhoQ-PhoP variant library, together with: 10 µM Mg2+; relative to: high Mg2+ state, higher = stronger signaling): 3.01

Some of these lines once more (series 1):
CACTGACTCAGCAGACACGTGGCTGGGCTCAGGCTG: 18300 a.u.
